Published values from different studies.
Each numbered part is a random draw from the data of one study; scales do not carry over between parts.

Set 1
Target: Interferon regulatory factor 5, full length, phosphomimetic (IRF5, Homo sapiens, UniProt Q13568-2, residues 1-514, S451D/S453D/S456D/S462D)
Method: protein-binding microarray
Molecule type: double-stranded DNA, one strand shown
Sample: in vitro
Concentration: 940 nM top
Notes: 60-bp whole probe
Added: salmon DNA 0.4 mg/ml
Baseline: random background probes
Reading: higher = stronger binding
Measurement: fitted relative affinity
Constant ends, left off below: GCCTAGCAC … GTCTTGATTCGCTTGACGCTGCTG
TTAGGTGCCCTTTTCCTTTAGTGCTAG: 0.0251 z-score
CTTCCCCTCTCATTCCAATTGTGCTAG: 1.62 z-score
TTACAACTGGGGTTTCGATTAGTGCTA: 5.91 z-score
GGTCTTTTCGCTTTCTTTACGTGCTAG: 3 z-score
TTAGGTCACCTTTTCCTTTAGTGCTAG: 0.344 z-score
TGTCATTTTCTCTTATTCTAGTGCTAG: 2.39 z-score
TTAGGTATCGGTCTCGGCTAGTGCTAG: 9.44 z-score
TTAGATCTCAGTATCCATTAGTGCTAG: 0.569 z-score
TTCGATCTCAGTTTCGATTAGTGCTAG: 8.35 z-score
TTGCAGATGACGAAACTGAAGTGCTAG: 0.228 z-score
TTAGGTTTCGGTATCGGTTAGTGCTAG: 15.5 z-score
TTAGTTATCCTTTTCCTTTAGTGCTAG: 1.42 z-score
TTAGGTCTCCTACTGCATTAGTGCTAG: -0.046 z-score
GGCGCTTTTTTTCCGAGTGAGTGCTAG: 0.674 z-score
GACTGTTTGGTCCTGATCCTGTGCTAG: -0.0518 z-score
TTAGGTTTCGGTTTCGGATAGTGCTAG: 15.3 z-score
GAGAGAGCTTGTCTGCAGCCGTGCTAG: -0.858 z-score
GACGCTTCCGGTTTCGGGACGTGCTAG: 4.22 z-score
GACGATTTCAGAATGGAGACGTGCTAG: -0.292 z-score

Set 2
Target: RNA binding protein fox-1 homolog 2, RRM domain, GST-SBP tag (RBFOX2, Homo sapiens, UniProt O43251-10, residues 100-194)
Method: RNA Bind-n-Seq
Molecule type: RNA
Sample: in vitro
Concentration: 365 nM
Notes: natural RNA segment, single round, ends assumed
Baseline: no-protein control
Reading: higher = stronger binding
Measurement: RBNS enrichment (R)
Constant ends, left off below: GGGAGUUCUACAGUCCGACGAUC … UGGAAUUCUCGGGUGCCAA
Target sequence (chain): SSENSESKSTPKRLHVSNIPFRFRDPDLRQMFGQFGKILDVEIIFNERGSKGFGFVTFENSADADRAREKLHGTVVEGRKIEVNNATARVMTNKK
GUGCUUAGAGAGAGCAAUGUCCAAUCUGUGGCUUGGGAGGUGUCUGCAAGUGACAUUCCUGCGAGCUUAGUGAUAUGGUCAAGUCCAUUGCAUCAGUAAUUUAUUUUUUU: 0.872
UGCUGUCUGCCUAGGAAUCCUUCAGUGGUAUGGGACACUCCUCAAGUGAGCCAAAUGCCCGUUCUUUCUCCCUUCCUUGAACUCCAGGUCCUGUGCUGUGUCUGUACUCA: 0.808
UCUUCUAACUCUCCUUCUUCUGAAUUGUGCAGAGACUCUGUUAACUUCCCUUUUUGCACUUAGAUAACUUCCUACUUCAACCCCCUCCUUUAUCUUGGAUUUCUAAAGUU: 0.567
AUUCACAUAGGUGGAGUUUCCCAUCUGAAGAUUUCUUUACAAGGACUUUGCUAAGUUCAUCUCAGGGUUAUCUGAGCCUUGACCAAGUUUAUCCUAAGGGAAUACCACUU: 0.306
UUGUAAAGAUAUUGUAUCUCCUUUAAUAUACUCCUUAAAAAUGUAUGUUGGUUUAGCGUUGUUUUGUGGAUAAGAAAAAUGCUUGACCCUGAAAUAUUUUCUACUUUAAA: 0.871
CAGUAGCUCAGACCUGUCUUUUCUUGCACACCAGCUGUGCUCUUGAGAAAAUGUAAAGGCUGCCAUUAUGGAUAUUAGGUAUCCCAACAUAACCAUCUGGAGUGUGUCCA: 0.248
UAUAUAUAGUACUUCUAUAAAUAACAGUUUUUAAGAAAUAGGUAAGUGGGGCAGGUUUGGUGGCUUCUGCCUGUAAUCACUGCAUUCAGAGGGGGCCAAGGCCUGUUUCA: 0.818
GUUAUAAUGAAUGCUUCUAUUUAAAAGGGAAAUAUUUCUACAUGUGCAUAUAGUUUUCCAAGAGUGUACCAUUAACUUGAUUGUUGAUAAUAAAAACAAAAAGCAAGUCU: 1.16

Set 3
Target: Ras GTPase-activating protein-binding protein 1, full length (G3BP1, Homo sapiens, UniProt Q13283)
Sequence of UniProt Q13283 (whole entry, looked up): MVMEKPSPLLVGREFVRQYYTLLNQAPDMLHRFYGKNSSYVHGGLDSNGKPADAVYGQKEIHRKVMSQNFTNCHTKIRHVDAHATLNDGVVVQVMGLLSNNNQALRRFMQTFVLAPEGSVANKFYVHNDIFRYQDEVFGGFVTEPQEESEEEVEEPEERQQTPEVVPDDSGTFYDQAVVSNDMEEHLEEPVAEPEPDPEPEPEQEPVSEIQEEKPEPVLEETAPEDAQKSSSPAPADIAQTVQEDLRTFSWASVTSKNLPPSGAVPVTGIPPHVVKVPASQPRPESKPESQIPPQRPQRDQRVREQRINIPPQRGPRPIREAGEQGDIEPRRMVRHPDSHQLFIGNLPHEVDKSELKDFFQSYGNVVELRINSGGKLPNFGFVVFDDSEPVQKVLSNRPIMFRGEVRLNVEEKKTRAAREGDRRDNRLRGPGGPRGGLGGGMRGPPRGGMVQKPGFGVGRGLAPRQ
Method: RNA Bind-n-Seq
Molecule type: RNA
Sample: in vitro
Concentration: 200 nM
Notes: whole 134-nt RNA, ends assumed
Added: 150 mM LiCl
Baseline: input library
Reading: higher = stronger binding
Measurement: log2 enrichment
Each molecule: 7-deaza-guanosine replaces G
Constant ends, left off below: GGGAGUUCUACAGUCCGACGAUC … UGGAAUUCUCGGGUGUCAAGG
UCCUGUGCUACACAUCGUAUGUACCGAAUCGGGGAAAAAGGGGAAAAAGGGGAAAAAGGAAAGUAUUAUGUUACGCCGUUCGGAUCUGCA: 0.0427
CAAGUCCUGUGCUACACAUCGUAUGUACCGAAUCGUGUGUGUGUGUGUGUGUGUGAAAGUAUUAUGUUACGCCGUUCGGAUCUGCACUUC: -0.641
CACAUACAACACGCACCCACACAGACACAGAGGGAAGGGGUUGGGAUGGGGACAGGGUGCACAGCAGGGCGGGGUAGGACCCCAGCCCCU: -0.326
ACCAUGCAGGUGGGCAUCUUUGGGAAGUGGGGCAAGGGAGGGAUAGGGAGGGGGGUAACACUUUGGGAACAGGUGGUCCCAGGUCGUUUC: 0.422
CCUGUGCUACACAUCGUAUGUACCGAAUCGGGAAAAAAGGGGAAAAAAGGGGAAAAAAGGGAAAGUAUUAUGUUACGCCGUUCGGAUCUG: 0.494
GUCCUGUGCUACACAUCGUAUGUACCGAAUCGGGGUUUUUUUGGGGUUUGGGGAGGGGAAAGUAUUAUGUUACGCCGUUCGGAUCUGCAC: -0.552
ACCAUGCAGGUGGGCAUCUUUGGGAAGUGGGGCAAGGGGGGGAUAGGGAGGGGGGUAACACUUUGGGAACAGGUGGUCCCAGAUCGUUUC: 0.0875
ACCAUGCAGGUGGGCAUCUUUGGGAAGUGGGGCAAGGGGGGGAUAGGGAGGGGGGUAUCACUUUGGGAACAGGUGGUCCCAGGUCGUUUC: 0.194

Set 4
Target: RING finger protein unkempt homolog, zinc fingers 1-6, GST-SBP tag (UNK, Homo sapiens, UniProt Q9C0B0, residues 30-357)
Sequence of UniProt Q9C0B0 (30-357, looked up): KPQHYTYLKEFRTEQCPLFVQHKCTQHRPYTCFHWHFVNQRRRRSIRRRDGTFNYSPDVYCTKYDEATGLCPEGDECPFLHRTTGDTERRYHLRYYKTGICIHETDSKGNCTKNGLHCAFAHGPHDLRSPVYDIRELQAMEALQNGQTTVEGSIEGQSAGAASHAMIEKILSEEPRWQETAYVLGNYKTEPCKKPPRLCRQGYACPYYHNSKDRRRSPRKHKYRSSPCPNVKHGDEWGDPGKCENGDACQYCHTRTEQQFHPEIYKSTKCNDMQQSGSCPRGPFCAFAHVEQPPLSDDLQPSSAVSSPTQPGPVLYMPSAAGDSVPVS
Method: RNA Bind-n-Seq
Molecule type: RNA
Sample: in vitro
Concentration: not given
Notes: RNA with constant flanks, ends assumed
Baseline: input RNA pool
Reading: higher = stronger binding
Measurement: bound/input enrichment
Constant ends, left off below: GGGAGUUCUACAGUCCGACGAUC … CAACAGAGGAUUGAGCAUCA
GAAUUCAUGCAUGAGACCCAUGAUGGAGUCCAGGAUAUGGCUUGUGACACAUUUAUUAAAACCGCUCAAAAAUGCCGUAGGCAUUUUGUUCAGGUUCAAGUUGGAGAAGUAAUGCCGUUC: 0.253 ratio
AUGACUUCCCGCCUGACACCAUCAGUUACUCCGGUGUAUGCACCUGGGUUCCCUUCAGUUGCCGCUCCAAACUUCAGUUUAGGGGUAGAGCCAAAUUCAUUACAGACUCUGAAGCUAAUG: 0.218 ratio
GGAAGGGUGGUAUGUGUUUUCAUCUUUGGAAGAGAAAAUUAAAUUGGAAUUAUUUUCCCGAAAUUUUGAGAAGUCCACUCAAUUUUCCUGGGAGAGAGUGCUCACUGUGUGAAAGUACAU: 0.472 ratio
GAUUUAAAACAUAGAGACCUUGAAUACAGGUCUUGCCAUCGUUUCCUUCAUAAGCCCAGCACCGAAAAGAUGUAUCAGUUUAAUGCUGUGUGUAGACCUGGAAAUUUUUGUCAACAGGAC: 0.245 ratio
CGGCCCCGUGACCCUAGUCGGCCGCUGAGAGGCGCGCGGAGUCUGGGCCGCUGCCGUCCCGGGGUCCCGUCCCGAGGCGUCCCCGGCAUCUCCGGCCCGAAUCCCGGAGUGCCGGGUCGC: 0.44 ratio
UCCAAAGUUGUCCGUGUUAGAGCAGAUUUGCUUGACGAGUUAAUUAAAUCAGGGCAGUUACCCGGCGUGAAAUUUAUAGCAGAGCUUGGUGUCCCACUGUCACAGGUUAAAAGCAUAUCA: 0.305 ratio
CGGAGUGUGCGGCUAGUCAGAGACAAAGACACAGACAAAUUUAAAGGGUUCUGCUAUGCCGAAUUUGAUGAGGUGGAUUCCCUGAAGGAGGCUCUGACUUAUGACGGUGCACUCUUGGGU: 0.146 ratio
UUCGGUGCCAUUGGCUUCUUCUGGGUUGAGUAAAUUGUCAGAUACUGCUCAUCAUUUGCAACCGUUUUCCCUGAGUGAGGCUGAAGCCUCAGGUUCCUUCAAAACACGCUAUCUAGAGAG: 0.224 ratio

Repeated from above (set 2):
GUUAUAAUGAAUGCUUCUAUUUAAAAGGGAAAUAUUUCUACAUGUGCAUAUAGUUUUCCAAGAGUGUACCAUUAACUUGAUUGUUGAUAAUAAAAACAAAAAGCAAGUCU: 1.16
UGCUGUCUGCCUAGGAAUCCUUCAGUGGUAUGGGACACUCCUCAAGUGAGCCAAAUGCCCGUUCUUUCUCCCUUCCUUGAACUCCAGGUCCUGUGCUGUGUCUGUACUCA: 0.808
UAUAUAUAGUACUUCUAUAAAUAACAGUUUUUAAGAAAUAGGUAAGUGGGGCAGGUUUGGUGGCUUCUGCCUGUAAUCACUGCAUUCAGAGGGGGCCAAGGCCUGUUUCA: 0.818
GUGCUUAGAGAGAGCAAUGUCCAAUCUGUGGCUUGGGAGGUGUCUGCAAGUGACAUUCCUGCGAGCUUAGUGAUAUGGUCAAGUCCAUUGCAUCAGUAAUUUAUUUUUUU: 0.872
UUGUAAAGAUAUUGUAUCUCCUUUAAUAUACUCCUUAAAAAUGUAUGUUGGUUUAGCGUUGUUUUGUGGAUAAGAAAAAUGCUUGACCCUGAAAUAUUUUCUACUUUAAA: 0.871
